Measurements gathered from unrelated publications.
Every numbered part comes from another study and shows a few of its results, in no order. Substitutions count along the parent as printed.

Series 1
Target: RNA binding protein fox-1 homolog 2, RRM domain, GST-SBP tag (RBFOX2, Homo sapiens, UniProt O43251-10, residues 100-194)
Method: RNA Bind-n-Seq
Form: RNA
Sample: in vitro
Tested at: 365 nM
Setting: natural RNA segment, single round, ends assumed
Baseline: no-protein control
Reading: higher = stronger binding
Measurement: RBNS enrichment (R)
Constant ends, left off below: GGGAGUUCUACAGUCCGACGAUC … UGGAAUUCUCGGGUGCCAA
Target sequence (chain): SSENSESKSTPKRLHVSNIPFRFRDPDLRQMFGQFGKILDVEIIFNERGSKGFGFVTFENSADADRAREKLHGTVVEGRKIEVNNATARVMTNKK
GAGAGUGAAGGAGACGGAGAAACGCGCCCCAUCCCUUCCGCCGCCUCCUUUCCCCCCCGACCCUAUUCAGGUUUUAAGUCAAAAAUGUCGAUAUGUCAUUAUGCACUUUA: 0.349
GACUAUGGUAGAGACUUGCUGCUCCUAACUCCCCAGUUACCCACCCUCCUCUGCCCUUUCUCGGGAUACCUUCUGUCCUUCCAUCCUGCCCUGUACUGCCCUCUGACUCC: 1.72
GAAAUAUUUACUACAUAUUUUCCAUCUGUAGUUUCUCAGAAGGGCUAUGGAUUAGUUUGAACUGUCAAAUCCUUGCAUACUUCUGUGACACCCCUGCCCAUUUUCUGUCU: 0.747
AAUAAUUGUGUUCAUUUUUGUUUUGUUUCCUUGUGUACUCCAGCAUUGGUUAUAGUCAUGGGAAAGGAAGGUGUCCACGCAGGCACAAUUAACAAGAAAACAUAUGAACU: 0.429
UGGCCAGAGCUCCUGGUGUCAAAUGCUGGGAACAGGAGUCUUCUUACAAAUUAUUUUUCUCCUCUUUCCUCUCGCCCUCUCUUUCACUAUUUUCCCCCCAGACUGGAAUU: 0.56
CUAGUUUCUUAAGCAGACCAAGUGAAUGGCUUACAGUCUGAAACAAAUAAAAGCCUUUGUAAAAGUCUGCGGUCUGCCGUCUGGUAAGCCAUCACUGCCGCCAGGAAGAG: 0.372
UGGAGGCUGUGGGGUGUAACUUUGGGUUUGUAUUUUUUCUGCUCAUCUUUCUGCCUGUCACCGGGUGUGCUGUUUUUCUGAAAAAAAAACAGGCCCCAAGGGCCCUGAGC: 0.381
AAUUAUGUGACAUUGAAACCUGCUGCUGCCGUGAUCUUGAGGAGAGUACAGAUGGGGAGGAAGGUUCCAGACUCUCCUCUCACUUUUUUUUUCCUCUCCUAUUCCAACAC: 0.349

Series 2
Target: Interferon regulatory factor 7, full length, phosphomimetic (IRF7, Homo sapiens, UniProt Q92985, residues 1-503, S471D/S472D/S475D/S476D/S477D/S483D/S484D/S487D)
Sequence of UniProt Q92985 (whole entry, unmodified, looked up): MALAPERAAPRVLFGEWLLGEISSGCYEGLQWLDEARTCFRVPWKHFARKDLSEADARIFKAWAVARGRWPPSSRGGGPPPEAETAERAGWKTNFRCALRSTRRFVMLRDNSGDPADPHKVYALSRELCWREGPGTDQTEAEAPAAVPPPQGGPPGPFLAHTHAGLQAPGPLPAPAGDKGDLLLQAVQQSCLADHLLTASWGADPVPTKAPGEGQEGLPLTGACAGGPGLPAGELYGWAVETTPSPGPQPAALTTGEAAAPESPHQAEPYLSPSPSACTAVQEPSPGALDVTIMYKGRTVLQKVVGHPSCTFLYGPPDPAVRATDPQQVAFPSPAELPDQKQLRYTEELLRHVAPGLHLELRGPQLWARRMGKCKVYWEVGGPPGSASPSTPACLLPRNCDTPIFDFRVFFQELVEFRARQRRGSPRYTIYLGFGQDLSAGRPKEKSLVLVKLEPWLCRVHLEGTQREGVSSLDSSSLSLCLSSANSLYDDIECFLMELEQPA
Method: protein-binding microarray
Form: double-stranded DNA, one strand shown
Sample: in vitro
Tested at: 2200 nM top
Setting: 60-bp whole probe
Together with: salmon DNA 0.4 mg/ml
Baseline: random background probes
Reading: higher = stronger binding
Measurement: fitted relative affinity
Constant ends, left off below: GCCTAGCAC … GTCTTGATTCGCTTGACGCTGCTG
CACGGTCTCGGTATCGGGACGTGCTAG: 0.171 z-score
TTAGGTTTCGACTATCAGTTAGTGCTA: 2.71 z-score
AGTGTTTCCCCTATTTAAGAGTGCTAG: 1.71 z-score
GCCGGTTTCGACTTTCGGGACGTGCTA: 10.1 z-score
GTAGGACTGCTTCTCCTTTAGTGCTAG: 0.822 z-score
TATTACCTCATCTTTCCCTGCGTGCTA: 2.11 z-score
GACGGTTTCGACACTGGGAACGTGCTA: 2.65 z-score
TTAGATATCAGAATCGATTAGTGCTAG: -0.12 z-score
GACGGTATCGGGTATTGGGACGTGCTA: -0.328 z-score
GACGGTTTCGGGTATCGGGGCGTGCTA: 6.14 z-score
TTCATTTTCCAAATGCCCTCGTGCTAG: 3.7 z-score
GACGGTCTCGCTATCGGGACGTGCTAG: 0.00631 z-score
TGAGGTCTCCTTATCCTTTAGTGCTAG: 0.689 z-score
GTCGATATCGGGTATCGAGACGTGCTA: 0.467 z-score
GCCGGTATCGGGTTTCGGGACGTGCTA: 1.62 z-score
GACGGTCTCGGGCTGGGGACGTGCTAG: -0.541 z-score
TTAGAAGTGAGACTGGATTAGTGCTAG: -0.865 z-score
ATGACTCTGCCTCTAACTGCGTGCTAG: 0.842 z-score
TTAGGACTGGACTTTCGGTAAGTGCTA: 0.942 z-score

Series 3
Target: Sal-like protein 4, full length isoform B (SALL4, Homo sapiens, UniProt Q9UJQ4-2, residues 1-616)
Method: universal PBM
Form: double-stranded DNA, one strand shown
Sample: in vitro
Tested at: not given
Setting: 8-mer, flanks averaged, mean of replicates
Reading: higher = stronger binding
Measurement: E-score
Construct (chain): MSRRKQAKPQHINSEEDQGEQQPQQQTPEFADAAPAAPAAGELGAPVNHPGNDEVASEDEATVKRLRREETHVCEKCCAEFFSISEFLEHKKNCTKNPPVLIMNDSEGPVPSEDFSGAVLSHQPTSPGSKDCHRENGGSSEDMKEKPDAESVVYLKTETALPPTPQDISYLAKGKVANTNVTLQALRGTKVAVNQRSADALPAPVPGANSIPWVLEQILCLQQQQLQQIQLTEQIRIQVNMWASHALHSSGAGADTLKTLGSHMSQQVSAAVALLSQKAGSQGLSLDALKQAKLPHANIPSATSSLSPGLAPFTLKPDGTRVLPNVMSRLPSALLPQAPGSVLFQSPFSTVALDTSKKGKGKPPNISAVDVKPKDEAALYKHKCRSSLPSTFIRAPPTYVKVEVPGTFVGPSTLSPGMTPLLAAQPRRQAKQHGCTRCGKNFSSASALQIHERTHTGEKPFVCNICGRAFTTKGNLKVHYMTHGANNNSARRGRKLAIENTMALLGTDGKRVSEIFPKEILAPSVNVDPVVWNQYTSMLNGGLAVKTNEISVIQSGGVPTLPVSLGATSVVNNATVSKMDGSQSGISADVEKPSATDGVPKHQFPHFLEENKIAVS
GAGGCTTA: 0.00273
CATGGAAA: 0.262
ATAACGAG: 0.191
AGAGAACT: -0.0564
CAGAGCGA: -0.148
ATGCCTCC: -0.148
AGGCGTAC: -0.0458
CCGTGGGC: -0.273
AATGTTGC: 0.177
CTAAAGTA: 0.112
AGGCGCGA: -0.183
GACATGAC: -0.102
ACTGAGAA: -0.178
AGGCCAGA: -0.103
GACAAGTA: 0.00228
ACTGCAAG: 0.045
CAACGCAC: -0.0985
CCATGTTA: 0.163
AGGCTTGG: -0.157
CAAGGGGG: -0.222
AAGACCCC: -0.155
ATAGACAC: 0.0624
TCCGTTCA: -0.119
AGAGTATC: 0.124
AAAACTCG: 0.074

Series 4
Target: human cyclin B2
Read-out: peptide binding
Method: yeast competitive growth sequencing
Form: peptide
Organism: Saccharomyces cerevisiae
Strain: cyclin B2-Cln2 fusion
Tested at: concentration not given
Setting: library 2
Reading: direction not given
Measurement: binding enrichment score
PPVIIKYIIINRF: -0.891
LLKRLQDVVSERA: -1.59
PSSMRKICTYFHR: -1.78

Series 5
Target: CRIPT, C-terminal peptide
Method: DHFR complementation, deep sequencing
Sample: yeast
Setting: single substitutions, model-inferred values
Baseline: wild type
Reading: higher = weaker binding
Measurement: binding free energy change
Parent: ERBIN, PDZ domain 1 (human); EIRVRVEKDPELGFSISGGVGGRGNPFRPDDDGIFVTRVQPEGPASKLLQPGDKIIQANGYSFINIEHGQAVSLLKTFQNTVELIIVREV; partner TKNYKQTSV
I2F: -0.12 kJ/mol
K76L: 1.58 kJ/mol
S46G: -0.463 kJ/mol
L49E: 6.24 kJ/mol
L84Q: 0.275 kJ/mol
I34R: 0.959 kJ/mol
G52L: 4.27 kJ/mol
V82Q: 5.9 kJ/mol
V82I: 5.01 kJ/mol

A few entries again (series 2):
AGTGTTTCCCCTATTTAAGAGTGCTAG: 1.71 z-score
GCCGGTTTCGACTTTCGGGACGTGCTA: 10.1 z-score
GTAGGACTGCTTCTCCTTTAGTGCTAG: 0.822 z-score
TATTACCTCATCTTTCCCTGCGTGCTA: 2.11 z-score
GACGGTTTCGACACTGGGAACGTGCTA: 2.65 z-score
TTAGATATCAGAATCGATTAGTGCTAG: -0.12 z-score
GACGGTATCGGGTATTGGGACGTGCTA: -0.328 z-score
GACGGTTTCGGGTATCGGGGCGTGCTA: 6.14 z-score
TTCATTTTCCAAATGCCCTCGTGCTAG: 3.7 z-score
GACGGTCTCGCTATCGGGACGTGCTAG: 0.00631 z-score
